Measured values gathered from unrelated publications.
Protocols differ between the studies behind these lines. ± marks the error that the study gave.

Compound	assay	test system	setting	Cmax
COc1cc2c(cc1OC)CN(CCc1ccc(NC(=O)c3cc(OC)c(OC)cc3NC(=O)c3cnc4ccccc4c3)cc1)CC2	–	human, plasma	intravenous infusion, 8 mg/kg	1590 ng/mL
C=C(C)[C@@H]1CC[C@]2(NCCN3CCS(=O)(=O)CC3)CC[C@]3(C)[C@H](CC[C@@H]4[C@@]5(C)CC=C(C6=CC[C@@](CF)(C(=O)O)CC6)C(C)(C)[C@@H]5CC[C@]43C)[C@@H]12	–	HIV-1-positive treatment-naive adults, plasma	oral, 10 mg single dose, day 1, with food	60 ng/mL
O=C(N[C@H]1CCN(CC2CC2)C[C@@H]1C(=O)NC1(c2ncccn2)CC1)c1cc(-c2ccc(F)cc2F)on1	–	healthy male subjects	oral, 10 mg, fed, geometric mean, added: itraconazole 200 mg multiple doses	55.3 ng/mL
CN(C)C(=O)c1cc2cnc(Nc3ccc(N4CCNCC4)cn3)nc2n1C1CCCC1	–	Japanese cancer patients, plasma	oral, 600 mg, steady state, no proton pump inhibitor, geometric mean	3500 ng/mL
COc1cc(OC)c(/C=C/S(=O)(=O)Cc2ccc(OC)c(NCC(=O)O)c2)c(OC)c1	–	cancer patients, phase I, plasma	oral, 700 mg twice daily, day 21 cycle 1	2340 ± 1280 ng/mL
CCC[C@H](N[C@@H](C)C(=O)N1[C@H](C(=O)O)C[C@@H]2CCCC[C@@H]21)C(=O)OCC	–	healthy Chinese volunteers, plasma	oral, 4 mg, fasting, added: indapamide 1.25 mg	48 ± 16.2 ng/mL
Cc1ccnc2c1NC(=O)c1cccnc1N2C1CC1	–	olive baboon (Papio anubis), female, non-pregnant, serum	oral, 5 mg/kg, solution, single dose	192 ± 61.5 ng/mL
Cc1nc(-c2ccc(OCC(C)C)c(C#N)c2)sc1C(=O)O	–	healthy Chinese adult volunteers, plasma	oral, 80 mg single dose, fed	3430 ± 1150 ng/mL
CCCN1CC(c2ccc(S(C)(=O)=O)cc2)=C(c2ccc(C)cc2)C1=O	–	healthy Chinese, non-elderly, plasma	oral, 100 mg	10.8 ng/mL
COc1c(N2C[C@@H]3CCCN[C@@H]3C2)c(F)cc2c(=O)c(C(=O)O)cn(C3CC3)c12	HPLC-MS/MS	healthy adults, plasma	oral, 400 mg	2270 ng/mL
Cc1cc(Nc2cc3ncccc3c(N[C@@H]3C[C@H]4CC[C@@H](C3)N4CCC#N)n2)n[nH]1	–	pregnant rabbit, maternal plasma	oral, 60 mg/kg/day, gestation day 7	305 ng/mL
CS(=O)(=O)n1cc2c(n1)CN([C@H]1CO[C@H](c3cc(F)ccc3F)[C@@H](N)C1)C2	–	healthy Japanese men, plasma	oral, 1 mg once weekly, day 15	21.2 nM
C[C@H]1Oc2cc(cnc2N)-c2c(nn(C)c2C#N)CN(C)C(=O)c2ccc(F)cc21	–	healthy adults	oral tablet, 100 mg single dose, adjusted geometric mean, added: rabeprazole 20 mg	377 ng/mL
O=C(C1CCCCC1)N1CC(=O)N2CCc3ccccc3[C@H]2C1	–	healthy men, plasma	oral, 40 mg/kg racemic praziquantel, geometric mean, without ritonavir	1170 ng/mL
NC(=O)c1cnc2[nH]ccc2c1N[C@@H]1[C@@H]2CC3C[C@H]1C[C@@](O)(C3)C2	–	healthy Caucasian men, plasma	oral, 20 mg, single dose fasted	48.9 ng/mL
COc1cccc(N2CCN(C3=Nc4c(F)cccc4[C@H](CC(=O)O)N3c3cc(C(F)(F)F)ccc3OC)CC2)c1	UHPLC-MS/MS	healthy women, plasma	intravenous infusion, 240 mg single dose, 30 min infusion, HPβCD formulation	15800 ± 3510 ng/mL
N[C@@H](CC(=O)N1CCn2c(nnc2C(F)(F)F)C1)Cc1cc(F)c(F)cc1F	–	healthy Korean subjects, plasma	oral, 100 mg single dose, ABCB1 G2677T/A TA	443 ± 96.6 ng/mL
CC(C)c1nc(CN(C)C(=O)N[C@H](C(=O)N[C@@H](Cc2ccccc2)C[C@H](O)[C@H](Cc2ccccc2)NC(=O)OCc2cncs2)C(C)C)cs1	–	healthy male, plasma	600 mg single dose, geometric mean, added: amenamevir 400 mg	13200 ng/mL
Cn1cnc2c(F)c(Nc3ccc(Br)cc3Cl)c(C(=O)NOCCO)cc21	–	healthy subjects, plasma	oral, 50 mg single dose, LS mean	863 ng/mL
CN1CCN(c2ccc3nc(-c4c(N)c5c(F)cccc5[nH]c4=O)[nH]c3c2)CC1	–	patients, plasma	oral, 300 mg daily 5 days on 2 off, day 19, minimum, added: gemcitabine and capecitabine	80.1 ng/mL
Cc1nc(-c2ccc(OCC(C)C)c(C#N)c2)sc1C(=O)O	–	healthy men, plasma	oral, 80 mg once daily, day 14, geometric mean, added: verinurad 2.5 mg	1720 ng/mL
CN1C(=O)[C@@H](NC(=O)c2nnc(Cc3ccccc3)[nH]2)COc2ccccc21	–	healthy men, plasma	oral, 20 mg once daily, day 1, geometric mean	281 ng/mL

Compound	assay	test system	setting	Cmax
CC(C)=CCC[C@](C)(O[C@@H]1O[C@H](CO)[C@@H](O)[C@H](O)[C@H]1O)[C@H]1CC[C@]2(C)[C@@H]1[C@H](O)C[C@@H]1[C@@]3(C)CC[C@H](O[C@@H]4O[C@H](CO)[C@@H](O)[C@H](O)[C@H]4O[C@@H]4O[C@H](CO)[C@@H](O)[C@H](O)[C@H]4O)C(C)(C)[C@@H]3CC[C@]12C	LC-MS/MS	healthy male volunteers, serum	oral, 3 g fermented red ginseng	17.5 ± 6.58 ng/mL
Cc1ccc(Sc2ccccc2N2CCNCC2)c(C)c1	–	healthy men, plasma	oral, 10 mg once daily, fed, day 1	4.3 ng/mL
Cc1c(Cl)c(C)[n+]([O-])c(Cl)c1-c1noc(-c2cc(O)c(O)c([N+](=O)[O-])c2)n1	–	Parkinson's disease patients, plasma	oral, 50 mg, day 1, after first dose	465 ± 458 ng/mL
CC1=C2C[C@H]3[C@@H](CC[C@@H]4C[C@H](NS(C)(=O)=O)CC[C@@]43C)[C@@H]2CC[C@@]2(C1)O[C@@H]1C[C@H](C)CN[C@H]1[C@H]2C	–	patients, plasma	oral, 130 mg daily, day 22, cycle 1	336 ng/mL
O=C(O)C[C@H](O)C[C@H](O)/C=C/c1c(C2CC2)nc2ccccc2c1-c1ccc(F)cc1	–	healthy Chinese male volunteers, plasma	oral, 2 mg once daily, multiple dose	86.2 ng/mL
CN[C@H](CC(C)C)C(=O)N[C@H]1C(=O)N[C@@H](CC(N)=O)C(=O)N[C@H]2C(=O)N[C@H]3C(=O)N[C@H](C(=O)N[C@H](C(=O)O)c4cc(O)cc(O)c4-c4cc3ccc4O)[C@H](O)c3ccc(c(Cl)c3)Oc3cc2cc(c3O[C@@H]2O[C@H](CO)[C@@H](O)[C@H](O)[C@H]2O[C@H]2C[C@](C)(N)[C@H](O)[C@H](C)O2)Oc2ccc(cc2Cl)[C@H]1O	microdialysis	pig (Danish Landrace), cortical bone	iv infusion, 1000 mg over 100 min, added: meropenem co-administered	7000 ng/mL
CN1CC[C@H](c2c(O)cc(O)c3c(=O)cc(-c4ccccc4Cl)oc23)[C@H](O)C1	–	patients with advanced solid tumours, plasma	intravenous infusion, 70 to 80 mg/m^2, added: FOLFOX	1950 nM
Cc1ccc(NC(=O)c2ccc(CN3CCN(C)CC3)cc2)cc1Nc1nccc(-c2cncc(-c3oncc3C)c2)n1	–	Parkinson's disease patients, plasma	oral, 50.0 mg once daily, day 1, 7-day dosing, mean	1720 ng/mL
COc1ccc2[nH]c([S+]([O-])Cc3ncc(C)c(OC)c3C)nc2c1 (stereo not shown)	–	healthy Chinese, CYP2C19 *3/*17, plasma	oral, 20 mg single dose	310 ± 129 ng/mL
CCCC[C@H](NC(C)=O)C(=O)N[C@H]1CCC(=O)NC[C@@H](C(=O)N[C@@H](Cc2c[nH]c3ccccc23)C(N)=O)NC(=O)[C@H](CCCNC(=N)N)NC(=O)[C@@H](Cc2ccccc2)NC(=O)[C@H](Cc2c[nH]cn2)NC1=O	–	healthy volunteers, plasma	subcutaneous, 3.0 mg once daily, day 7, steady state mean	58.5 ng/mL
CC(C)=CCC[C@](C)(O[C@@H]1O[C@H](CO)[C@@H](O)[C@H](O)[C@H]1O)[C@H]1CC[C@]2(C)[C@@H]1[C@H](O)C[C@@H]1[C@@]3(C)CC[C@H](O[C@@H]4O[C@H](CO)[C@@H](O)[C@H](O)[C@H]4O)C(C)(C)[C@@H]3CC[C@]12C	LC-MS/MS	healthy male volunteers, serum	oral, 3 g fermented red ginseng	3.09 ± 5.03 ng/mL
O=C1CCc2ccc(OCCCCN3CCN(c4cccc(Cl)c4Cl)CC3)cc2N1	–	healthy Japanese men, CYP2D6 EM, plasma	oral, 3 mg aripiprazole single, added: fluvoxamine 100 mg/day	20.5 ± 4 ng/mL
CON	LC-MS/MS	cancer patients, plasma	iv infusion, dose not given, 120 h, 16 cycles, added: oral temozolomide	40.6 ng/mL
C[C@@H](N)c1cc(Cl)ccc1Cn1c(=S)[nH]c(=O)c2[nH]ccc21	–	healthy Japanese volunteers, plasma	oral, 5 mg once daily, day 10, geometric mean	37.4 nM
CC(C)(Sc1ccncc1-c1ccc(C#N)c2ccccc12)C(=O)O	–	Japanese male subjects, plasma	oral, 10 mg, single dose, fed, geometric least squares mean	21.9 ng/mL
C[C@@H]1O[C@@H](OC[C@H]2O[C@@H](Oc3c(-c4ccc(O)c(O)c4)oc4cc(O)cc(O)c4c3=O)[C@H](O)[C@@H](O)[C@@H]2O)[C@H](O)[C@H](O)[C@H]1O	–	healthy volunteers, urine	oral, dose not given, pharmaceutical preparations	780 ± 10.4 ng/mL
O=C(c1cccnc1-c1ccncc1)N1CCC(O)(Cc2ccccc2)CC1	–	healthy subjects, plasma	oral, 300 mg twice daily, day 1	1330 ng/mL
CC(C)NCCCn1c(Sc2cc3c(cc2I)OCO3)nc2c(N)ncnc21	–	patients, plasma	intravenous, ≥266 mg/m2	> 3400 nM
CCOc1ccc(Cc2cc([C@@H]3S[C@H](CO)[C@@H](O)[C@H](O)[C@H]3O)c(OC)cc2C)cc1	–	Japanese type 2 diabetes patients, plasma	oral, 5 mg single dose, eGFR 45-59 mL/min/1.73 m^2	252 ± 67.5 ng/mL
C[C@]12C=CC(=O)C=C1CC[C@@H]1[C@@H]2[C@@H](O)C[C@@]2(C)[C@H]1C[C@H]1O[C@@H](C3CCCCC3)O[C@]12C(=O)CO	–	children with asthma, serum	inhaled, 160 µg ciclesonide, day 7, HFA-MDI with spacer, steady state	0.208 ± 0.012 ng/mL
CO[C@H]1C[C@@H]2CC[C@@H](C)[C@@](O)(O2)C(=O)C(=O)N2CCCC[C@H]2C(=O)O[C@H]([C@H](C)C[C@@H]2CC[C@@H](OP(C)(C)=O)[C@H](OC)C2)CC(=O)[C@H](C)/C=C(\C)[C@@H](O)[C@@H](OC)C(=O)[C@H](C)C[C@H](C)/C=C/C=C/C=C/1C	HPLC-MS/MS	Japanese patients, whole blood	oral, 20 mg, day 1, cycle 1, geometric mean	113 ng/mL
